Assay results from different studies.
± marks the error that the study gave.

SMILES | assay | test system | conditions | quantity | result
COc1cc2nc(c1)CNCc1cc(OC)cc(n1)CNC2 | protonation constant, potentiometry | – | 298 K, ionic strength 0.15 M NaCl | log K1 | 8.04
CC[C@H](C)[C@H](NC(=O)[C@H](CO)NC(=O)[C@H](CCCNC(=N)N)NC(C)=O)C(=O)N[C@H]1CSSC[C@@H](C(=O)N[C@H](C(N)=O)[C@@H](C)O)NC(=O)[C@H](CCCNC(=N)N)NC(=O)[C@H](Cc2c[nH]cn2)NC(=O)[C@H](C)NC(=O)CNC(=O)[C@H](Cc2c[nH]c3ccccc23)NC(=O)[C@H](CC(=O)O)NC(=O)[C@H](CCC(N)=O)NC(=O)[C@H](Cc2cccc3ccccc23)NC(=O)[C@H](C(C)C)NC1=O | isocratic RP-HPLC, C18 | 32% acetonitrile, phosphate pH 7.4, 1% TFA | 25 °C | log retention factor | 0.068
CCOC(=O)Oc1cccc2c1[n+]([O-])c1cccc(OC(=O)OCC)c1[n+]2[O-] | PAMPA | artificial membrane in PBS | 50 µM, 5 h | log effective permeability | -4.75
Oc1ccc(Br)c2cccnc12 | – | oil/water | pH 7.4 | log P | 2.03
COc1ccc2cc(CCC[18F])ccc2c1 | – | n-octanol/0.1 M phosphate buffer | pH 7.4, 25 °C, per radiosynthesis batch | log P | 2.43
CC[C@H](C)[C@H](NC(C)=O)C(=O)N[C@H]1CSSC[C@@H](C(=O)N[C@H](C(N)=O)[C@@H](C)O)NC(=O)[C@H](CCCNC(=N)N)NC(=O)[C@H](Cc2c[nH]cn2)NC(=O)[C@H](C)NC(=O)CNC(=O)[C@H](Cc2c[nH]c3ccccc23)NC(=O)[C@H](CC(=O)O)NC(=O)[C@H](CCC(N)=O)NC(=O)[C@H](Cc2cn(C)c3ccccc23)NC(=O)[C@H](C(C)C)NC1=O | RP-HPLC, C18 | 28% acetonitrile isocratic | pH 7.4 | log retention factor | 0.771
Cc1cc2c(cc1C)[n+]([O-])c1c(O)cccc1[n+]2[O-] | PAMPA | artificial membrane in PBS | 50 µM, 5 h | log effective permeability | -5.45
O=C(O)CN1Cc2cccc(n2)CN(CC(=O)O)Cc2cccc(n2)C1 | potentiometric titration | 0.16 M NaCl | 25 °C | log KHL | 9.25
O=c1[nH]c2ccccc2s1 | SPME sorption isotherm | PBS | – | log Freundlich coefficient | 1.33
c1ccc2cc3ccccc3cc2c1 | – | fresh water | 12 (unit not given), 20 °C, S30-1 sampler, 30 µm | log K(PDMS-water) | 3.88 ± 0.04
C[Si](C)(C)O[Si](C)(C)O[Si](C)(C)C | regression | 1-octanol/water | 25 °C | log KOW | 6.79
CN1CCN(c2ccc(C(=O)Nc3n[nH]c4ccc(Cc5cc(F)cc(F)c5)cc34)c(NC3CCOCC3)c2)CC1 | – | porcine brain polar lipids | 10 µM, pH 7.4, 0.2% DMSO | log D brain polar lipid | 3.28 ± 0.03
Cc1c(C)[n+]([O-])c2c(O)cccc2[n+]1[O-] | PAMPA | artificial membrane in PBS | 50 µM, 5 h | log effective permeability | -4.35
O=S(=O)(O)c1nc2ccccc2s1 | SPME sorption isotherm | PBS | – | log Freundlich coefficient | 0.42
CC[C@H](C)[C@H](NC(=O)[C@H](CO)NC(=O)[C@H](CCCNC(=N)N)NC(C)=O)C(=O)N[C@H]1CSSC[C@@H](C(=O)N[C@H](C(N)=O)[C@@H](C)O)NC(=O)[C@H](CCCNC(=N)N)NC(=O)[C@H](Cc2c[nH]cn2)NC(=O)[C@H](C)NC(=O)CNC(=O)[C@H](Cc2c[nH]c3ccccc23)NC(=O)[C@H](CC(=O)O)NC(=O)[C@H](CCC(N)=O)NC(=O)[C@H](Cc2c[nH]c3ccccc23)NC(=O)[C@H](C(C)C)NC1=O | RP-HPLC, C18 | 28% acetonitrile isocratic | pH 7.4 | log retention factor | 0.13
CCOC(=O)Oc1cccc2c1[n+]([O-])c1cccc(O)c1[n+]2[O-] | PAMPA | artificial membrane in PBS | 50 µM, 5 h | log effective permeability | -7.32
CC[C@H](C)[C@H](NC(C)=O)C(=O)N[C@H]1CSSC[C@@H](C(=O)N[C@H](C(N)=O)[C@@H](C)O)NC(=O)[C@H](CCCNC(=N)N)NC(=O)[C@H](Cc2c[nH]cn2)NC(=O)[C@](C)(CC)NC(=O)CNC(=O)[C@H](Cc2c[nH]c3ccccc23)NC(=O)[C@H](CC(=O)O)NC(=O)[C@H](CCC(N)=O)NC(=O)[C@H](Cc2c[nH]c3ccccc23)NC(=O)[C@H](C(C)C)NC1=O | isocratic RP-HPLC, C18 | 32% acetonitrile, phosphate pH 7.4, 1% TFA | 25 °C | log retention factor | 0.082
c1ccc2c(c1)ccc1ccccc12 | – | fresh water | 12 (unit not given), 20 °C, S100 sampler, 100 µm | log K(PDMS-water) | 3.79 ± 0.01
CC[C@H](C)[C@H](N)C(=O)N[C@H]1CSSC[C@@H](C(=O)N[C@H](C(N)=O)[C@@H](C)O)NC(=O)[C@H](CCCNC(=N)N)NC(=O)[C@H](Cc2c[nH]cn2)NC(=O)[C@H](Cc2c[nH]cn2)NC(=O)CNC(=O)[C@H](Cc2c[nH]c3ccccc23)NC(=O)[C@H](CC(=O)O)NC(=O)[C@H](CCC(N)=O)NC(=O)[C@H](C(C)C)NC(=O)[C@H](C(C)C)NC1=O | isocratic RP-HPLC, C18 | 32% acetonitrile, phosphate pH 7.4, 1% TFA | 25 °C | log retention factor | -0.44
CC(C)(C)OC(=O)COc1cccc2c1[n+]([O-])c1ccccc1[n+]2[O-] | PAMPA | artificial membrane in PBS | 50 µM, 5 h | log effective permeability | -4.76
CC[C@H](C)[C@H](NC(=O)[C@H](CO)NC(=O)[C@H](CCCNC(=N)N)NC(C)=O)C(=O)N[C@H]1CSSC[C@@H](C(=O)N[C@H](C(N)=O)[C@@H](C)O)NC(=O)[C@H](CCCNC(=N)N)NC(=O)[C@H](Cc2c[nH]cn2)NC(=O)[C@H](C)NC(=O)CNC(=O)[C@H](Cc2c[nH]c3ccccc23)NC(=O)[C@H](CC(=O)O)NC(=O)[C@H](CCC(N)=O)NC(=O)[C@H](Cc2ccc3ccccc3c2)NC(=O)[C@H](C(C)C)NC1=O | RP-HPLC, C18 | 28% acetonitrile isocratic | pH 7.4 | log retention factor | 0.628
O=C(O)c1ccc2c(c1)nc(NCc1ccccc1)c1ncccc12 | PAMPA | PBS | 5 h, pH 7.4 | log Papp | -5.19
C=CC[C@@]1(C)NC(=O)CNC(=O)[C@H](Cc2c[nH]c3ccccc23)NC(=O)[C@H](CC(=O)O)NC(=O)[C@H](CCC(N)=O)NC(=O)[C@H](Cc2c[nH]c3ccccc23)NC(=O)[C@H](C(C)C)NC(=O)[C@@H](NC(=O)[C@@H](NC(C)=O)[C@@H](C)CC)CSSC[C@@H](C(=O)N[C@H](C(N)=O)[C@@H](C)O)NC(=O)[C@H](CCCNC(=N)N)NC(=O)[C@H](Cc2c[nH]cn2)NC1=O | RP-HPLC, C18 | 28% acetonitrile isocratic | pH 7.4 | log retention factor | 0.613
C[Si](C)(C)O[Si](C)(C)C | – | 1-octanol/water | 0.7-42 µg/L in water, 12.4 °C | log KOW | 5.05

Excerpt of the above:
SMILES | assay | test system | conditions | quantity | result
CC(C)(C)OC(=O)COc1cccc2c1[n+]([O-])c1ccccc1[n+]2[O-] | PAMPA | artificial membrane in PBS | 50 µM, 5 h | log effective permeability | -4.76
CC[C@H](C)[C@H](N)C(=O)N[C@H]1CSSC[C@@H](C(=O)N[C@H](C(N)=O)[C@@H](C)O)NC(=O)[C@H](CCCNC(=N)N)NC(=O)[C@H](Cc2c[nH]cn2)NC(=O)[C@H](Cc2c[nH]cn2)NC(=O)CNC(=O)[C@H](Cc2c[nH]c3ccccc23)NC(=O)[C@H](CC(=O)O)NC(=O)[C@H](CCC(N)=O)NC(=O)[C@H](C(C)C)NC(=O)[C@H](C(C)C)NC1=O | isocratic RP-HPLC, C18 | 32% acetonitrile, phosphate pH 7.4, 1% TFA | 25 °C | log retention factor | -0.44
c1ccc2cc3ccccc3cc2c1 | – | fresh water | 12 (unit not given), 20 °C, S30-1 sampler, 30 µm | log K(PDMS-water) | 3.88 ± 0.04
Cc1c(C)[n+]([O-])c2c(O)cccc2[n+]1[O-] | PAMPA | artificial membrane in PBS | 50 µM, 5 h | log effective permeability | -4.35
